Published values pooled from the literature.
Protocols differ between the studies behind these lines. “And” joins repeats or separate records; there may be more than shown.
Target: Serine/threonine-protein kinase Nek1 (NEK1, Homo sapiens, UniProt Q96PY6)

Structure (SMILES) | test | setting | how to read | quantity | value
CN1CC[C@@H](COc2cnc(C#N)cc2-c2ccn3nc(NC(=O)C4CC4)cc3c2)C1 | enzyme activity, inhibitor | 1 µM |  | inhibition | -1%
COc1cc(Nc2nc(C)cc(-c3cnn4nc(OC)ccc34)n2)cc(C(F)(F)F)c1 | inhibitor | 1 µM | reference: control | remaining activity | 100%
CNC(=O)C1CCN(c2cc(C)c(F)cc2NC(=O)c2ccc(-c3cc(O)ccc3C)c(C)c2)CC1 | binding, competition with immobilised ligand | 1 µM |  | remaining binding | 92%
Cc1cnc2nc1Nc1cccc(c1)COC/C=C/COCc1cc(ccc1OCCN1CCOCC1)N2 | binding | 0.1 µM |  | remaining binding | 100%
C=CC(=O)N1CCCC(n2c(=O)c3ncccc3n(Cc3ccc(Oc4ccccc4)cc3)c2=O)C1 (stereo not shown) | cell-free assay, competition with immobilised ligand | 1 µM |  | remaining binding | 93%
COCC12C(=O)NC3C4(C(OC)CC1O)C1CC5(O)C(OC)C(O)C(OC(C)=O)(C1C5OC(=O)c1ccccc1)C3(O)C(OC)C24 (stereo not shown) | kinase activity, inhibitor, ProQinase kinase profiling | 25 µM | reference: control | remaining activity | 103% and 92%
CCn1cc(C(=O)O)c(=O)c2c(N)c(F)c(NC3CCCCC3)cc21 | kinase activity | 0.1 µM, with: ATP at Km |  | inhibition | 1.2%
COc1cc(-n2cc3cc(F)cc(C(N)=O)c3n2)cc(Cl)c1C1CC(O)(CCO)Cc2ccccc21 (stereo not shown) | enzyme activity, inhibitor | 10 µM |  | inhibition | 3.2%
C=CC(=O)Nc1cccc(-c2cnc3[nH]cc(C(=O)NC(C)(C)C)c3n2)c1 | kinase activity | 0.1 µM |  | inhibition | 28% and 29%
NC(=O)[C@@H](O)C[C@H]1CCc2sc3ncnc(O[C@H]4CC[C@H](N5CCOCC5)CC4)c3c21 | enzyme activity, inhibitor | 10 µM |  | inhibition | -14%
CN1C[C@@H](c2c[nH]c3cc(Br)ccc23)NC[C@@H]1c1c[nH]c2cc(Br)ccc12 | enzyme activity, inhibitor | 10 µM |  | remaining activity | 102%
C[C@H](c1ccccc1)N1C(=O)C2=Nc3cccc(Cl)c3CN2C1=S | enzyme activity, inhibitor | 1.5 µM |  | inhibition | ≥ 85%
C=CC(=O)N1Cc2nc(-c3cc(-c4cc(Cl)cnc4Cl)c(F)cc3F)n(-c3ccncn3)c2C1 | cell-free assay, inhibitor | 1 µM |  | inhibition | 2%
CNC(=O)C[C@H](Cc1ccc(C#N)cc1)NC(=O)c1cc(-c2ccc(CN[C@H](C)c3ccc(C)cc3)o2)ccc1Cl | enzyme activity, inhibitor | 1 µM |  | activity vs control | 95%
CCN1CCN(Cc2ccc(C(=O)Nc3ccc(C)c(NCc4cnc5[nH]ccc5c4OC)c3)cc2C(F)(F)F)CC1 | binding, competition with immobilised ligand | 1 µM |  | remaining binding | 63%
Cc1cccc(O[C@H]2CCC[C@@H](C(C)CNCc3ccncc3)C2)c1 (relative stereo) | enzyme activity, inhibitor | 1 µM |  | inhibition | 4%
